Results gathered from unrelated publications.
Several values in a cell are separate wells, animals, samples, runs or records. Numbers after ± are the reported error. ≈ marks a conversion by molar mass, not a printed value.
UniProt Q92851, sequence (whole entry, looked up): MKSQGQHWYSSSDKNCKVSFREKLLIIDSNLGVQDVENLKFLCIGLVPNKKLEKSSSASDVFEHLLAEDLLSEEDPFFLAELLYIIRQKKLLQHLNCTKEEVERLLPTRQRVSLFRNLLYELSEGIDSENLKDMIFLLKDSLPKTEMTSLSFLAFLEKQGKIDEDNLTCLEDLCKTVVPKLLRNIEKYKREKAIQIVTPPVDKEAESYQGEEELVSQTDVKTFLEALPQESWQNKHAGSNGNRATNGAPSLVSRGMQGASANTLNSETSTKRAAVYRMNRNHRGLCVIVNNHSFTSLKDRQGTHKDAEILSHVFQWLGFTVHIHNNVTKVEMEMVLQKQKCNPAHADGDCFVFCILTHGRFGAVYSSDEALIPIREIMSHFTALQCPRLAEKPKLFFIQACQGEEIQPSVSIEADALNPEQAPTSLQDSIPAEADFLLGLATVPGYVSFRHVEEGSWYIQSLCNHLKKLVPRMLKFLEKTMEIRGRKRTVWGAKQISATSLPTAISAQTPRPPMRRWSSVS
UniProt P07948, sequence (whole entry, looked up): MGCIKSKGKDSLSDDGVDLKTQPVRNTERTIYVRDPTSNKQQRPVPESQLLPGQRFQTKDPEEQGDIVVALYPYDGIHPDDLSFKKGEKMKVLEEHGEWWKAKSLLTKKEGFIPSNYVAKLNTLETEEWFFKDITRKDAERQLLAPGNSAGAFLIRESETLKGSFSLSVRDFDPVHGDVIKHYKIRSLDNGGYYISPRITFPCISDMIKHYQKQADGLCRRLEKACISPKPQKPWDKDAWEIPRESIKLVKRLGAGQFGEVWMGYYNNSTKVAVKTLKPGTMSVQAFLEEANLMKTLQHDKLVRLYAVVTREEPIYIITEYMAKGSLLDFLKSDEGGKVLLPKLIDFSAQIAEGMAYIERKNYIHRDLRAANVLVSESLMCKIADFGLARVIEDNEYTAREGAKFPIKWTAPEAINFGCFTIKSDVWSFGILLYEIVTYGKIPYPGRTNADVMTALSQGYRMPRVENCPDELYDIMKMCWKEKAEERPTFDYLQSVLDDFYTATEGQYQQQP

O=C(CCN1CCN(C/C=C/c2ccccc2)CC1)Nc1ccccc1F  larval motion (locomotor activity in dark; zebrafish larvae, 7 dpf; 10 µM, minute 1, dark phase): 2.7 ± 1.3 pixels/frame
Nc1ncc(-c2cc(-c3cnn(CC(F)(F)F)c3)ncc2F)nc1C(=O)NC1CNCC(F)C1 (stereo not shown)  remaining binding (CDK4-cyclinD1; KINOMEscan competition binding; 1 µM; relative to: DMSO control): 100%
O=C1NC2(CC2)COc2ncc(F)cc2[C@H]2COCCN2c2ccn3ncc1c3n2  cells with structural aberrations (CHL cells; chromosomal aberration test; 20 µg/mL, 24 h, without S9 mix): 1%
CCN(C(=O)c1cc(F)ccc1Oc1nncnc1N1CCC2(C1)CN([C@H](CCCN(C)CCOC)C(C)C)C2)C(C)C  GI50 (TE-671; muscle; 168 h): > 10000 nM
CC(C)C[C@H](NC(=O)[C@H](Cc1ccc(O)cc1)NC(=O)[C@@H](CCCNC(=N)N)NC(=O)[C@@H](CO)NC(=O)[C@H](Cc1ccccc1)NC(=O)[C@H](CC1CCCCC1)NC(=O)[C@H](CC(=O)O)NC(=O)CN1CCN(CC(=O)O)CCN(CC(=O)O)CCN(CC(=O)O)CC1)C(=O)N[C@@H](Cc1c[nH]c2ccccc12)C(=O)N[C@@H](CO)C(=O)O [copper-64 labelled]  activity concentration (human, urinary bladder; concentration not given, 1 h): 74400 Bq/mL and 74700 Bq/mL and 143000 Bq/mL and 41100 Bq/mL and 29400 Bq/mL and 124000 Bq/mL
C=C1CC[C@H](OCCCNC(=O)CCOCCOCCOCCOCCOCCOCCOCCOCCOCCOCCOCCOCCOCCOCCOCCOCCOCCOCCOCCOCCOCCOCCOCCOCCOCCOCCOCCOCCOCCOCCOCCOCCOCCOCCOCCOCCNC(=O)CCN2C(=O)CC(SC[C@H](NC(=O)[C@H](Cc3ccccc3)NC(=O)[C@H](CC(N)=O)NC(=O)[C@H](Cc3c[nH]cn3)NC(=O)[C@@H](NC(=O)[C@H](CC(=O)O)NC(=O)[C@H](CCC(N)=O)NC(=O)[C@H](CC(C)C)NC(=O)[C@H](CCCCN)NC(=O)[C@H](CCCCN)NC(=O)[C@H](CCCNC(=N)N)NC(=O)[C@H](CC(C)C)NC(=O)[C@H](Cc3c[nH]c4ccccc34)NC(=O)[C@H](CCC(=O)O)NC(=O)[C@@H](NC(=O)[C@H](CCCNC(=N)N)NC(=O)[C@H](CCC(=O)O)NC(=O)[C@H](CCSC)NC(=O)[C@H](CO)NC(=O)[C@H](CC(N)=O)NC(=O)[C@H](CC(C)C)NC(=O)[C@H](Cc3c[nH]cn3)NC(=O)[C@H](CCCCN)NC(=O)CNC(=O)[C@H](CC(C)C)NC(=O)[C@H](CC(N)=O)NC(=O)[C@H](Cc3c[nH]cn3)NC(=O)[C@H](CCSC)NC(=O)[C@H](CC(C)C)NC(=O)[C@H](CCC(N)=O)NC(=O)[C@@H](NC(=O)[C@H](CCC(=O)O)NC(=O)[C@H](CO)NC(=O)[C@@H](NC(=O)[C@@H](N)CO)C(C)C)[C@@H](C)CC)C(C)C)C(C)C)C(=O)O)C2=O)C/C1=C/C=C1\CCC[C@]2(C)[C@@H]([C@H](C)CCCC(C)(C)O)CC[C@@H]12 (stereo partly shown)  AUC(0-t) (male Sprague-Dawley rat, plasma; subcutaneous, 100 µg/kg, single dose): 468 ng·h/mL
CCOC(=O)C1CCN(CCC(=O)Nc2ccccc2F)CC1  larval motion (zebrafish larvae, 7 dpf; 10 µM, minute 2): 0.7 ± 0.5 pixels/frame
c1ccc(-c2n[nH]cc2-c2ccnc3ccccc23)nc1  log2 fold change (SSK2 (Candida albicans); kinase binding, MIB/MS competition; Candida albicans lysate; 1 µM; relative to: DMSO): -0.19
CCN(CC)CC(=O)Nc1cccc(-n2cc(-c3ccc4ccc(-c5cn(-c6cccc(NC(=O)CN(CC)CC)c6)nn5)cc4c3)nn2)c1  fold regulation (RCC4; PCR angiogenesis array, measured: ANGPT2; 5 x IC50, 4 h, normoxia; relative to: untreated): -1.37
Cc1cc(OCCOCCn2ccnc2)cc(C(C)C)c1  larval motion (zebrafish larvae, 7 dpf; 10 µM, minute 2): 7.8 ± 1.6 pixels/frame
Cc1nn(-c2cccc(N)c2)c(=O)c2cnc(Nc3ccc(N4CCNCC4)cc3)nc12  IC50 (LYN (Homo sapiens, UniProt P07948); inhibitor, SelectScreen kinase): 1730 nM
CC(C)C[C@@H](NC(=O)[C@@H](CC(C)C)NC(=O)[C@@H](CC(=O)O)NC(=O)[C@@H](CC(C)C)NC(=O)[C@@H](CC(C)C)NC(=O)[C@@H](CC(C)C)NC(=O)[C@H](NC(=O)[C@@H](CC(=O)O)NC(=O)[C@H](NC(=O)[C@H]1CCCN1C(=O)[C@@H](Cc1ccccc1)NC(=O)[C@@H](CC(C)C)NC(=O)[C@@H](CC(C)C)NC(=O)[C@@H](CC(=O)O)NC(=O)[C@@H](CC(C)C)NC(=O)[C@@H](Cc1ccc(O)cc1)NC(=O)[C@@H](C)NC(=O)[C@@H](CCCNC(=N)N)NC(=O)[C@@H](Cc1c[nH]c2ccccc12)NC(=O)[C@H]1CCCN1C(=O)[C@@H](CC(N)=O)NC(=O)[C@@H](CCC(N)=O)NC(=O)[C@@H](CC(=O)O)NC(=O)[C@@H](CC(=O)O)NC(=O)[C@@H](CSC1CC(=O)N(CCNC(=O)CN2CCN(CC(=O)O)CCN(CC(=O)O)CC2)C1=O)NC(=O)[C@@H](C)N)[C@H](C)O)[C@H](C)O)C(=O)N[C@H](Cc1c[nH]c2ccccc12)C(=O)O (stereo partly shown) [fluorine-18 labelled]  tissue uptake (male nude mice, PC-3 xenograft, blood; intravenous, 4 h): 11.6 %ID/g
CCCC[C@H](NC(=O)COCCOCCNC(=O)CN1CCN(CC(=O)O)CCN(CC(=O)O)CC1)C(=O)N[C@H]1CC(=O)NCCCC[C@@H](C(N)=O)NC(=O)[C@H](Cc2c[nH]c3ccccc23)NC(=O)[C@H](CCCNC(=N)N)NC(=O)[C@@H](Cc2ccccc2)NC(=O)[C@H](Cc2c[nH]cn2)NC1=O [technetium-99m labelled]  tissue uptake (C57 mouse, intestine; intravenous, 0.037 MBq, 0.5 h): 4.49 ± 1.09 %ID
CNS(=O)(=O)Nc1nccc(Cc2c(C)c3ccc(Oc4ncccc4F)cc3oc2=O)c1F  IC50 (SK-N-SH; cell viability, CellTiter-Glo; 7 days): 6.16 nM
Cc1ncsc1-c1ccc(C(C)NC(=O)C2CC(O)CN2C(=O)C(NC(=O)CCCCCCCCCCN2CCCC(Nc3ncc(Cl)c(Nc4ccccc4S(=O)(=O)C(C)C)n3)C2)C(C)(C)C)cc1 (stereo not shown)  log2 fold change (22Rv1; RNA-seq, measured: TESMIN mRNA; concentration not given; relative to: DMSO): -1.19
CN(C)C(=O)c1ccnc(N2Cc3cn(Cc4ccc(F)cc4F)nc3C2)n1  rotarod speed at fall (cuprizone-diet mice, rotarod test; oral, 5 mg/kg): 15 RPM and 17 RPM and 12 RPM and 14 RPM and 24 RPM
C=CC(=O)N1[C@@H](c2ccc3c(c2)OCO3)c2[nH]c3ccccc3c2C[C@H]1C(=O)N1CCN(C)CC1  log2 fold change (CCNE1 WT-3xFLAG:CDK2 complex; co-IP TMT proteomics, measured: CDK2; HEK-293T; 20 µM, 6 h; relative to: DMSO): -0.0145
OC(COCC1COc2ccccc2O1)CN1CCN(c2ccccc2)CC1 (stereo not shown)  larval motion (zebrafish larvae, 7 dpf; 10 µM, minute 4): 3.7 ± 1.2 pixels/frame
C=CC(=O)Nc1cccc(Cn2ncc3cnc(Nc4cnn(CCOC)c4)nc32)c1  percent of control (CSNK1G1 human; binding, KINOMEscan; 100 nM; lower = stronger binding): 100%
CN1CCCNC(=O)c2cccc(c2)C(=O)NCCCN(C)CCCNc2cccc3c2C(=O)c2cccc(c2C3=O)NCCC1  log2 fold change (SAS; RNA-seq, measured: UBAC2-AS1 mRNA; 1 µM, 6 h; relative to: untreated cells): 1.64
CC(=O)N[C@@H](Cc1ccc(C)cc1)C(=O)N[C@@H](CCCC(=O)O)C(=O)N[C@H](C(=O)N[C@@H](CC(=O)O)C(=O)COC(=O)c1c(C)cccc1C)C(C)(C)C  kinact/KI (Caspase-10 (CASP10, Homo sapiens, UniProt Q92851); enzyme activity, inhibitor): 218000 M⁻¹ s⁻¹
COC1CN([C@H]2CC[C@H]([C@@]3(C)Oc4c(Cl)cc(C(=O)NCc5c(SC)cc(C)[nH]c5=O)c(C)c4O3)CC2)C1  log2 fold change (RNA-seq, measured: LOXL1; human, whole blood; dose not given, 24 h; relative to: pretreatment baseline): 1.67
Cn1ncc2cc(-c3cncc(Cl)c3N3CCC4(CCNC4=O)CC3)ccc21  log2 fold change (LS174T; gene expression, microarray, measured: VASN mRNA; concentration not given, 4 h; relative to: untreated cells): -1.26
CC(C)C[C@H](NC(=O)[C@@H](CCCCNC(=O)[C@@H](Cc1ccccc1)NC(=O)CCCCCNC(=O)CN1CCN(CC(=O)O)CCN(CC(=O)O)CCN(CC(=O)O)CC1)NC(=O)[C@H](Cc1ccc(O)cc1)NC(=O)[C@H](CO)NC(=O)[C@H](Cc1c[nH]c2ccccc12)NC(=O)[C@H](Cc1c[nH]cn1)NC(=O)[C@@H]1CCC(=O)N1)C(=O)N[C@@H](CCCNC(=N)N)C(=O)N1CCC[C@H]1C(=O)NCC(N)=O [indium-111 labelled]  tissue uptake (female athymic nude mice, brain; intravenous, 0.037 MBq, 4 h): 0.01 %ID/g
CCCC[C@H](NC(=O)CCCCCCCNC(=O)CN1CCN(CC(=O)O)CCN(CC(=O)O)CC1)C(=O)N[C@H]1CC(=O)NCCCC[C@@H](C(N)=O)NC(=O)[C@H](Cc2c[nH]c3ccccc23)NC(=O)[C@H](CCCNC(=N)N)NC(=O)[C@@H](Cc2ccccc2)NC(=O)[C@H](Cc2c[nH]cn2)NC1=O [technetium-99m labelled]  tissue uptake (C57 mouse, muscle; intravenous, 0.037 MBq, 2 h): 0.01 ± 0.01 %ID/g
COc1ccccc1C1CCN(CCC(=O)Nc2ccc(C)c(C)c2)CC1  larval motion (zebrafish larvae, 7 dpf; 10 µM, minute 4): 1.2 ± 0.5 pixels/frame
CC(C)c1ccc(N(C)c2ccc3c(c2)OCC[C@H]3CNc2cnccc2C(=O)O)cc1  IC50 (A2058; cell viability, CellTiter-Glo; 7 days): 46.8 nM
C=C(NC(=O)c1csc(-c2nc3c(cc2O)-c2nc(cs2)C(=O)NC(C(C)O)C(=O)NC(=C(C)OC)c2nc(cs2)C(=O)NC2c4nc(cs4)C(=O)NC(COC(=O)c4c5c6c(cccc6n4O)COC(=O)C(OC4CC(C)(O)C(N(C)C)C(C)O4)C2OC5)c2nc-3cs2)n1)C(N)=O (stereo not shown)  MIC50 (Streptococcus pyogenes; 10 isolates; pH 5.5): 7.8 ng/mL (≈ 5.43 nM)

A few entries again:
CCN(C(=O)c1cc(F)ccc1Oc1nncnc1N1CCC2(C1)CN([C@H](CCCN(C)CCOC)C(C)C)C2)C(C)C  GI50 (TE-671; muscle; 168 h): > 10000 nM
CCN(CC)CC(=O)Nc1cccc(-n2cc(-c3ccc4ccc(-c5cn(-c6cccc(NC(=O)CN(CC)CC)c6)nn5)cc4c3)nn2)c1  fold regulation (RCC4; PCR angiogenesis array, measured: ANGPT2; 5 x IC50, 4 h, normoxia; relative to: untreated): -1.37
CCCC[C@H](NC(=O)COCCOCCNC(=O)CN1CCN(CC(=O)O)CCN(CC(=O)O)CC1)C(=O)N[C@H]1CC(=O)NCCCC[C@@H](C(N)=O)NC(=O)[C@H](Cc2c[nH]c3ccccc23)NC(=O)[C@H](CCCNC(=N)N)NC(=O)[C@@H](Cc2ccccc2)NC(=O)[C@H](Cc2c[nH]cn2)NC1=O [technetium-99m labelled]  tissue uptake (C57 mouse, intestine; intravenous, 0.037 MBq, 0.5 h): 4.49 ± 1.09 %ID
CC(C)C[C@H](NC(=O)[C@@H](CCCCNC(=O)[C@@H](Cc1ccccc1)NC(=O)CCCCCNC(=O)CN1CCN(CC(=O)O)CCN(CC(=O)O)CCN(CC(=O)O)CC1)NC(=O)[C@H](Cc1ccc(O)cc1)NC(=O)[C@H](CO)NC(=O)[C@H](Cc1c[nH]c2ccccc12)NC(=O)[C@H](Cc1c[nH]cn1)NC(=O)[C@@H]1CCC(=O)N1)C(=O)N[C@@H](CCCNC(=N)N)C(=O)N1CCC[C@H]1C(=O)NCC(N)=O [indium-111 labelled]  tissue uptake (female athymic nude mice, brain; intravenous, 0.037 MBq, 4 h): 0.01 %ID/g
